Measured values pooled from the literature.
Every numbered part comes from another study and shows a few of its results, in no order.
Chain of UniProt O14733 (whole entry, looked up): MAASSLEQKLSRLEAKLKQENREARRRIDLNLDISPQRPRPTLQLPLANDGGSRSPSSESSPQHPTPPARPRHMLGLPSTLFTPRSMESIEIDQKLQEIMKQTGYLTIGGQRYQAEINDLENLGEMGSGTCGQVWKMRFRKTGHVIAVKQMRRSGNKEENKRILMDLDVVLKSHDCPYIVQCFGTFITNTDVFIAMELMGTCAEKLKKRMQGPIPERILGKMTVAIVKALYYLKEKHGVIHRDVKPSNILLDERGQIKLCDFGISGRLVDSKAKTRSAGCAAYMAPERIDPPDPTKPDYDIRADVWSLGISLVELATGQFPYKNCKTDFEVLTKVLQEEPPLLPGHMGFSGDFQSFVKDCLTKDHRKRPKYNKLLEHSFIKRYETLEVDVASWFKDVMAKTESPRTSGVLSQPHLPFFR
Chain of UniProt O00238 (whole entry, looked up): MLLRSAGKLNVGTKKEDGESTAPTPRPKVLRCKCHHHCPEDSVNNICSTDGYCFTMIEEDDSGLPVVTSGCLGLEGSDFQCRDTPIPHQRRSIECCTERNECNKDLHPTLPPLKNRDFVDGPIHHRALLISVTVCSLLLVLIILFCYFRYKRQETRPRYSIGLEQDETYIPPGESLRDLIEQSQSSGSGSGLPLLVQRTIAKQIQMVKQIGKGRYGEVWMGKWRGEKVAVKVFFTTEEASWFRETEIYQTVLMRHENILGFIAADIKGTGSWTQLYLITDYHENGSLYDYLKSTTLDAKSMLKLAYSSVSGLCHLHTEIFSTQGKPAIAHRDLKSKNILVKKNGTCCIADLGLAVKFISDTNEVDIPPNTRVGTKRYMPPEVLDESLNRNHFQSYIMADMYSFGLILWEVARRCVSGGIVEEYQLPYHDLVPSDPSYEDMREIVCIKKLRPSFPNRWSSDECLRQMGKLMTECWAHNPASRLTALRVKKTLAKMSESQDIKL
Chain of UniProt Q8IW41 (whole entry, looked up): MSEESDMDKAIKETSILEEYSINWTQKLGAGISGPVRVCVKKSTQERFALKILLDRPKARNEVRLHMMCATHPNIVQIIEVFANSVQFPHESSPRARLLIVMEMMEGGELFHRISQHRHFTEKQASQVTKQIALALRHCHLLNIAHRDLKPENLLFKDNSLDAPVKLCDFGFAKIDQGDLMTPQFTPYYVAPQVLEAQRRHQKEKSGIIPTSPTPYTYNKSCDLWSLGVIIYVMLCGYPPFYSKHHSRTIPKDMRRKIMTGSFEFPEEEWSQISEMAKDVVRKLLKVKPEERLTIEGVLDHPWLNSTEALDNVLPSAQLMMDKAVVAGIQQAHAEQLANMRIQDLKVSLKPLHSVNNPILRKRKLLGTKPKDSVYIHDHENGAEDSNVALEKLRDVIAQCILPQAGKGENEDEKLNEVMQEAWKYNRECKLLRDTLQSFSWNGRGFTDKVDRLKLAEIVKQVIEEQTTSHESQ
Chain of UniProt Q06187 (whole entry, looked up): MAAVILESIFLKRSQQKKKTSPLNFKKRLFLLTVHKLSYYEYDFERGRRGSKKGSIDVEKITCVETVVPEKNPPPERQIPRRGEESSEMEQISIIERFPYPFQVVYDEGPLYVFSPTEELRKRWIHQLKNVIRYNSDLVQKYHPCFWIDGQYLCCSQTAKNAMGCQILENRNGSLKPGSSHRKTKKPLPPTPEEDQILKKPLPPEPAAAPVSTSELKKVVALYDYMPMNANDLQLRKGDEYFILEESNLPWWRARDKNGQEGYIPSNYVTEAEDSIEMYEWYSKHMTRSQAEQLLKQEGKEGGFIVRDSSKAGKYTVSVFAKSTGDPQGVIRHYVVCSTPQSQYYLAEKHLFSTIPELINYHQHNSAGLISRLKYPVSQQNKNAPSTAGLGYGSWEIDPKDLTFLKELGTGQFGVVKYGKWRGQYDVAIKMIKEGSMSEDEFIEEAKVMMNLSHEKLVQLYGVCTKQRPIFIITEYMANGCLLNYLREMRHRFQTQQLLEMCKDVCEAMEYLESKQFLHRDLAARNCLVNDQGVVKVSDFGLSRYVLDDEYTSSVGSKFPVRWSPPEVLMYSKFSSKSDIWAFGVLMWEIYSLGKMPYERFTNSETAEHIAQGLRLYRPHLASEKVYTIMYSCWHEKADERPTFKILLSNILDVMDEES
Chain of UniProt O96013 (whole entry, looked up): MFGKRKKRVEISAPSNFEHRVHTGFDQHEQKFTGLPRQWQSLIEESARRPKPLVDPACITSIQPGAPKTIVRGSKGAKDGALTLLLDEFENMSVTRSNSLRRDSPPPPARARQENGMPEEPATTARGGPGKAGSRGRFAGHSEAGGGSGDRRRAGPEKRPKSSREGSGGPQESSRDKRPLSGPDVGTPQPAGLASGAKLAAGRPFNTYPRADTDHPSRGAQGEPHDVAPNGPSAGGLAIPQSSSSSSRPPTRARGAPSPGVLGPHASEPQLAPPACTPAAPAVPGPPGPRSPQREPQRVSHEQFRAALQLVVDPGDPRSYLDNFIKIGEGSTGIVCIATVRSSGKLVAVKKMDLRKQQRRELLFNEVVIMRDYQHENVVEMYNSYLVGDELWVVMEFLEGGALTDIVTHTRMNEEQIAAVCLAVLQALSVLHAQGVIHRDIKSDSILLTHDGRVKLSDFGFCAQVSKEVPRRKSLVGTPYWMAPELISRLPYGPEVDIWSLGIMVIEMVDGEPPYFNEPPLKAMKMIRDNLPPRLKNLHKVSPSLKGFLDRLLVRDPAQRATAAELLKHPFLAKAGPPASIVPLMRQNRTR
Chain of UniProt Q8TDC3 (whole entry, looked up): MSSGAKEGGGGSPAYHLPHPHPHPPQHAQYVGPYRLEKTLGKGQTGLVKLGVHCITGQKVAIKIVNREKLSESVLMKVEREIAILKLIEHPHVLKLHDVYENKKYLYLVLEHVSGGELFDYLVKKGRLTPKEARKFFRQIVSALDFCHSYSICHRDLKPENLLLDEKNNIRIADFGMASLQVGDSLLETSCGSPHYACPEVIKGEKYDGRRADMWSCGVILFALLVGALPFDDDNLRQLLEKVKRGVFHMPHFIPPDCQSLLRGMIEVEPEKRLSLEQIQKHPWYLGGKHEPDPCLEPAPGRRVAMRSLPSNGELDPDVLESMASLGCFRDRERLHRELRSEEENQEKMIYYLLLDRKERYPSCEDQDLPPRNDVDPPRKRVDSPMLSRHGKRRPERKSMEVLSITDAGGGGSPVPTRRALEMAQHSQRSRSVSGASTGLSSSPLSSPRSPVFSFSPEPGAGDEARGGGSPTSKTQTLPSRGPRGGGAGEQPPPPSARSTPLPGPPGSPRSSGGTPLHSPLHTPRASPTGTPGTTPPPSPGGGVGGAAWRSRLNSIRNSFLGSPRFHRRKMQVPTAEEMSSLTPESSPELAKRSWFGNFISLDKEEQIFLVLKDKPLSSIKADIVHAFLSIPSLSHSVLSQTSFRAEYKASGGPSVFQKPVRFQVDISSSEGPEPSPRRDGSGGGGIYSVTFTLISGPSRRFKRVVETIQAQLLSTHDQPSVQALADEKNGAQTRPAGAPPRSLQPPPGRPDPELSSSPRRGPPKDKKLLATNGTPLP
Chain of UniProt Q8NI60 (whole entry, looked up): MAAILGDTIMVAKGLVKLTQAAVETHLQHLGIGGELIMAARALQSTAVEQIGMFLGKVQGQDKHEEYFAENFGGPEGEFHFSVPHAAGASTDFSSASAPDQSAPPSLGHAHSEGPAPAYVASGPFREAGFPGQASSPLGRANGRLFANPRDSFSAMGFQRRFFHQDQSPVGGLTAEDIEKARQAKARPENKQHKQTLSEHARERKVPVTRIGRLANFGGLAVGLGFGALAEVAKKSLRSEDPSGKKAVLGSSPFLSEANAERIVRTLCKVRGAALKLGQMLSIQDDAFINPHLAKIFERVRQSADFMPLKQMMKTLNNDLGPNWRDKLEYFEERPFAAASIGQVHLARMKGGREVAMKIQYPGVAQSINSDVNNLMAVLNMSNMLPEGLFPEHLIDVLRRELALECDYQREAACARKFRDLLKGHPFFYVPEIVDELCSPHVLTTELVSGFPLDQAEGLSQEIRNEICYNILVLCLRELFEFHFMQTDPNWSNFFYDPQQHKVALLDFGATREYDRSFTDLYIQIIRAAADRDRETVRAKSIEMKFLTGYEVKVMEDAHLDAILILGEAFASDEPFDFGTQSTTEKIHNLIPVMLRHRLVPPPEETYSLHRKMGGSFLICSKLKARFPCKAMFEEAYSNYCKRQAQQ
Chain of UniProt Q8TDR2 (whole entry, looked up): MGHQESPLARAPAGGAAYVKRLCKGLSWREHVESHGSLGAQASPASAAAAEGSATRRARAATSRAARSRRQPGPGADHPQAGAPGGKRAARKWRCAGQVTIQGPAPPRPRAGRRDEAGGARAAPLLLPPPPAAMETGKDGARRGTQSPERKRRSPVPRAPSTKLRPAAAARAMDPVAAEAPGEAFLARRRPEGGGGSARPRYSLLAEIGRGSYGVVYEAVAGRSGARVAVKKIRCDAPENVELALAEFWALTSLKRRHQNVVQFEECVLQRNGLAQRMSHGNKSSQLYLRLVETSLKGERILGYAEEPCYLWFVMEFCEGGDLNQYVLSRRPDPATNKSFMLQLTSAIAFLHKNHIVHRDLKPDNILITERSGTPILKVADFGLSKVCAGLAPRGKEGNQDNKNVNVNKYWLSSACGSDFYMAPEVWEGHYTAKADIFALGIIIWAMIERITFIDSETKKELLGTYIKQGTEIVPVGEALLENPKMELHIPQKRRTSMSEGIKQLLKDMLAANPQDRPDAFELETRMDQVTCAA

Study 1
Target: PABPC1L2, full length, GST fusion (mouse, UniProt A0ABA7IW68)
Technique: RNAcompete
Form: RNA
Medium: in vitro
Tested at: 20 nM
Setting: 7-mer, probes averaged, single round
Relative to: mean of 7-mers
Reading: higher = stronger binding
Target sequence (chain): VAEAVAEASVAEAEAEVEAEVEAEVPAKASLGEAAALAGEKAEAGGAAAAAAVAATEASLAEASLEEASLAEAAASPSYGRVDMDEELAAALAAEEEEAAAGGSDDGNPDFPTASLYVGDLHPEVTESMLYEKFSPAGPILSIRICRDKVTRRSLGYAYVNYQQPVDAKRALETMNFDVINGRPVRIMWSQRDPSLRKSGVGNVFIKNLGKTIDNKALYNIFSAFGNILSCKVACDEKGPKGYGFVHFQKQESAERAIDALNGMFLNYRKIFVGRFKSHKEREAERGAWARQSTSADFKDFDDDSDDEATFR
For `AGCGUUG`, the 7-mer Z-score was -0.101.
`AUUAUUC` has a 7-mer Z-score of -0.17.
With `CUAAGGC` the 7-mer Z-score was -0.0989.
With `UGUCCCA` the 7-mer Z-score was -0.264.
With `AUAAAUU` the 7-mer Z-score was 2.89.
`GUAACGC` gave a 7-mer Z-score of -0.157.
`CCGCCCC` gave a 7-mer Z-score of -0.586.
`AUAAAGG` has a 7-mer Z-score of 1.29.

Study 2
Cell line: A-375
Tested at: 100 µM
Time: 18 h
For COc1ccc(C(Cl)=C(c2ccc(OC)cc2)c2ccc(OC)cc2)cc1, the viability was 89.2%.
The viability of CC(C)(C)c1nc(-c2cccc(NS(=O)(=O)c3c(F)cccc3F)c2F)c(-c2ccnc(N)n2)s1 is reported as 96%.
For CC1(C)C(C=C(Cl)Cl)C1C(=O)OCc1cccc(Oc2ccccc2)c1 (centres unmarked), the viability was 60.5%.
The viability of Nc1ccc2cc3ccc(N)cc3nc2c1 is reported as 38.8%.
For NC(=O)CCCCC1CCSS1 (centres unmarked), the viability was 98.6%.

Study 3
Target: Cyclin-dependent kinase 6, with cyclin D1 (CDK6, Homo sapiens, UniProt Q00534)
Chain of UniProt Q00534 (whole entry, looked up): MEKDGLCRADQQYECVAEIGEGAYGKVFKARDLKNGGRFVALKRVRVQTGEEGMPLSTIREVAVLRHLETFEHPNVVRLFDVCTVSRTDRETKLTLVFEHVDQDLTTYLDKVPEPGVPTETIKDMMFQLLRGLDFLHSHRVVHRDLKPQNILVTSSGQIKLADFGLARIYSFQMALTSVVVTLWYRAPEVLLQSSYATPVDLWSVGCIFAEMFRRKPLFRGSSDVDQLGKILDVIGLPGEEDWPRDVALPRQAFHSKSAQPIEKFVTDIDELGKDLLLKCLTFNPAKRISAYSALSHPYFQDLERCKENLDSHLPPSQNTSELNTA
Read-out: enzyme activity
Mode: inhibitor
Tested at: 0.5 µM
Relative to: control
CNc1cc2c(Nc3cccc(Br)c3)ncnc2cn1 gave a remaining activity of 82.2%.
With O=C(O)/C=C/c1cc(Br)c(Br)c(Br)c1Br the remaining activity was 102%.
With Nc1nc(Nc2ccc(S(N)(=O)=O)cc2)nn1C(=S)Nc1c(F)cccc1F the remaining activity was 2.89%.
N#C/C(=C(/N)SC1C=CC=CC1)c1cccc(C(O)c2ccncc2)c1 (centres unmarked) gave a remaining activity of 95.9%.
COc1cc2c(N3CCN(C(=O)Nc4ccc(OC(C)C)cc4)CC3)ncnc2cc1OCCCN1CCCCC1 gave a remaining activity of 94.6%.
With O=Nc1c(-c2c(O)[nH]c3ccccc23)[nH]c2ccccc12 the remaining activity was 52.8%.
For O=C1NC(=O)/C(=C/c2ccc3c(c2)OC(F)(F)O3)S1, the remaining activity was 95.4%.
Clc1ccc(Nc2nnc(Cc3ccncc3)c3ccccc23)cc1 gave a remaining activity of 93%.
C[C@@H](N)[C@H]1CC[C@H](C(=O)Nc2ccncc2)CC1 has a remaining activity of 95.1%.
CC(C)N(CCC(=O)c1ccc2ccccc2c1)Cc1ccccc1 gave a remaining activity of 96.8%.
NC(=O)c1cccc(-c2cc(Nc3ccc(OC(F)(F)F)cc3)ncn2)c1 gave a remaining activity of 99.1%.

Study 4
Structure (SMILES): CCCOc1ccc([C@H]2[C@H](C(=O)O)[C@@H](c3ccc4c(c3)OCO4)CN2CC(=O)Nc2c(CC)cccc2CC)cc1
Read-out: cell-free assay
Technique: competition with immobilised ligand
Tested at: 1 µM
The remaining binding was 55% (Tyrosine-protein kinase BTK (BTK, Homo sapiens, UniProt Q06187)).
For ALK tyrosine kinase receptor (ALK, Homo sapiens, UniProt Q9UM73): remaining binding read 100%.
For Mitogen-activated protein kinase 8 (MAPK8, Homo sapiens, UniProt P45983): remaining binding read 70%.
Mitogen-activated protein kinase 15 (MAPK15, Homo sapiens, UniProt Q8TD08) — remaining binding: 100%.
For Mitogen-activated protein kinase kinase kinase 13 (MAP3K13, Homo sapiens, UniProt O43283): remaining binding read 47%.
Serine/threonine-protein kinase BRSK1 (BRSK1, Homo sapiens, UniProt Q8TDC3) — remaining binding: 100%.
Serine/threonine-protein kinase 35 (STK35, Homo sapiens, UniProt Q8TDR2) — remaining binding: 92%.
For Ephrin type-A receptor 5 (EPHA5, Homo sapiens, UniProt P54756): remaining binding read 100%.
For Inhibitor of nuclear factor kappa-B kinase subunit epsilon (IKBKE, Homo sapiens, UniProt Q14164): remaining binding read 68%.
It gave 65% for remaining binding (MAP kinase-activated protein kinase 5 (MAPKAPK5, Homo sapiens, UniProt Q8IW41)).
The remaining binding was 100% (Atypical kinase COQ8A, mitochondrial (COQ8A, Homo sapiens, UniProt Q8NI60)).
It gave 91% for remaining binding (Serine/threonine-protein kinase PAK 4 (PAK4, Homo sapiens, UniProt O96013)).
The remaining binding was 61% (Bone morphogenetic protein receptor type-1B (BMPR1B, Homo sapiens, UniProt O00238)).
Dual specificity mitogen-activated protein kinase kinase 7 (MAP2K7, Homo sapiens, UniProt O14733) — remaining binding: 74%.
